# Results of several laboratories.
# Compare with care: the assays were run in different laboratories.
# Target: Bifunctional epoxide hydrolase 2 (EPHX2, Homo sapiens, UniProt P34913)
# Chain of UniProt P34913 (whole entry, looked up): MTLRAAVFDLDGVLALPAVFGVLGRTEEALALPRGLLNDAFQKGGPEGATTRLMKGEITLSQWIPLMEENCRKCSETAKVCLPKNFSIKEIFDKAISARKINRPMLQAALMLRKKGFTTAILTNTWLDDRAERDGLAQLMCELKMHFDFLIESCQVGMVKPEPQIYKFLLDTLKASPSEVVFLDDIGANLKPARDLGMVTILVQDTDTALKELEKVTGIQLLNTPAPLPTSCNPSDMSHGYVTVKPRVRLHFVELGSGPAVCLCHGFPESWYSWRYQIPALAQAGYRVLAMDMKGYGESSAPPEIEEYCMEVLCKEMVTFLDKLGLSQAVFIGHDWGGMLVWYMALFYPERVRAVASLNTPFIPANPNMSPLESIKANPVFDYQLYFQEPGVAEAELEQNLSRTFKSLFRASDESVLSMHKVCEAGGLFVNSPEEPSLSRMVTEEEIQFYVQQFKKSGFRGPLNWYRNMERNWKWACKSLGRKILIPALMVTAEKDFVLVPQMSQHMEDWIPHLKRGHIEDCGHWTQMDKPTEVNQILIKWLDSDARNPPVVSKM
# Read-out: enzyme activity
# Action: inhibitor
SMILES,method,pH,setting,quantity,result
CC12CC3CC(C)(C1)CC(NC(=O)Nc1ccc(C(=O)N4CCC(C(=O)NC5CC5)CC4)cc1)(C3)C2,,,,IC50,1.14 nM
CC(C)(O)C1=CC2Oc3c(ccc(O)c3C(=O)CCCCCCCCc3ccc(O)c(O)c3)C2(C)CC1 (centres unmarked),,,,Ki,23100 nM
O=C(/C=C/c1ccc(O)c(O)c1)NCCc1ccc(O)cc1,,,,Ki,1800 nM
O=C(Nc1ccc(-c2nc(-c3ccccc3)cs2)cc1)C1CCN(Cc2ccccc2Cl)CC1,fluorescence,pH 7.4,with preincubation,IC50,2040 nM
CC=Cc1ccc(OC(C)C(c2ccc(O)c(OC)c2)c2ccc(O)c(C(=O)CCCCCCCCc3ccc(O)c(O)c3)c2O)c(OC)c1 (centres unmarked),,,,Ki,23300 nM
O=C(NCCc1ccc(O)cc1)c1cc2cc(O)c(O)cc2c(-c2ccc(O)c(O)c2)c1C(=O)NCCc1ccc(O)cc1,,,,Ki,6900 nM
CC(C)=CC(=O)O[C@H]1c2c(ccc3ccc(=O)oc23)OC(C)(C)[C@H]1OC(=O)C=C(C)C,fluorescence,,,Ki,1100 nM
CC12CC3CC(C)(C1)CC(NC(=O)Nc1ccc(C(=O)N4CCC[C@@H](C(N)=O)C4)cc1F)(C3)C2,,,,IC50,0.08 nM
O=C(Nc1ccc(-c2nc(-c3ccccc3)cs2)cc1)C1CCN(Cc2ccc(F)cc2)CC1,fluorescence,pH 7.4,with preincubation,IC50,10.7 nM
CC12CC3CC(C)(C1)CC(NC(=O)Nc1ccc(C(=O)N4CCC[C@@H](C(N)=O)C4)cc1)(C3)C2,,,,IC50,0.31 nM
Cc1ccccc1CN1CCC(C(=O)Nc2ccc(-c3nc(-c4ccccc4)cs3)cc2)CC1,fluorescence,pH 7.4,with preincubation,IC50,163 nM

# Excerpt of the above:
SMILES,method,pH,setting,quantity,result
CC12CC3CC(C)(C1)CC(NC(=O)Nc1ccc(C(=O)N4CCC[C@@H](C(N)=O)C4)cc1)(C3)C2,,,,IC50,0.31 nM
